# Experimental data pooled from the literature.
# Each numbered part is a random draw from the data of one study; scales do not carry over between parts.

# Series 1
# Target: RNA binding protein fox-1 homolog 2, RRM domain, GST-SBP tag (RBFOX2, Homo sapiens, UniProt O43251-10, residues 100-194)
# Method: RNA Bind-n-Seq
# Molecule type: RNA
# Medium: in vitro
# Concentration: 365 nM
# Setting: natural RNA segment, single round, ends assumed
# Relative to: no-protein control
# Direction: higher = stronger binding
# Shared flanks, not repeated: GGGAGUUCUACAGUCCGACGAUC … UGGAAUUCUCGGGUGCCAA
# Residues (chain): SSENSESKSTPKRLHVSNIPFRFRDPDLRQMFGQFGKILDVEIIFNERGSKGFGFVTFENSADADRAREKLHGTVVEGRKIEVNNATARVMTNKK
Sequence,RBNS enrichment (R)
GCAGCCCAUUUUUGAAAUGUCAGCAUGUGCUGUGUUCAGUUCAGGUUUUUGUUGUUUGUUUUGUUAUUUUUUAACUAAUAAGUUGGUUAUCAGUGGUGGGUUUUCAAAAU,3.67
GCGCAUCGGGGAGGGGUGCUCUGAAGGCCAGGCACGGCCACCACACGACGCUGUUCUUAGUUCACUAAUGUUAGCCUUAUUUAGGACAAAGUCAGCCAGACACCUUGUAC,0.426
AAUUGUGUAAUAAACUUGAUGACGAUGUCAAUCUUUUAUACUGCAUUGUAUUUUUUUCCUUUUGUAACAAAAUAUUUUUAAAUAAUAAAUGGGGUGUGAGCUGUUUACGG,0.431
GAUUGCGAAACACAGGAAUGUGCAGGCGCUCCGGGGGGUGUAAAGUGAACGUUUCCAUCGUUAGAAUGUUUUCUCUGGCCAUUUGUGGAUUUAAUGCACUUGACGUGGAU,0.55
GCACUAUGUAGGUCCCCAUCCACUACUUGACCACCUUUAUCAUUUACGGGGAUUUACAUAGAUUACAGUGGCCAAGACCCCUUUCUCAAUGAAGGAUCUCAUUGGACGUC,0.418
CAGAGGAAAAACAAAAACAUCCCUGAAAAUAUACACACUCAUACACACACACGCACAGGGGAAUAAAAUAAGAAAAUCAUUUUCCUCACCAUAGACUUGAUCCCAUCCUU,1.21
UAAUAUGAGAAUCCAGUUCUCAUGACAAGAACCAGUUUAAAAACUGCUCGUUCUUAAAAAGGUAAAACUAAGAUUUAGAAACAAGGCAGGCCUUAGAGCCGAGGGAGACU,0.326
AAAGCCUUGCAAGACACUCCCUUGCUCAUUUGCCAUAUUUAGAUGUCUUAGUGGAGUCAGAGCCCUGUUUGGUAUGUGUUUUUCAUGCUAAGUCUAAAUUGUCUUUUCAU,1.21

# Series 2
# Target: Prothrombin, mature alpha-thrombin (F2, Homo sapiens, UniProt P00734)
# Method: aptamer microarray, sandwich
# Molecule type: DNA with 2'F-ANA
# Medium: in vitro
# Concentration: 200 nM
# Setting: whole 15-mer aptamer, many near background
# With: Cy3 exosite-II aptamer, 400 nM
# Direction: higher = stronger binding
# Sequence: GGTTGGTGTGGTTGG
Modification,mean fluorescence intensity
2'F-ANA at 2 4 5 6 9 11 12 13 14 15,46.7 a.u.
2'F-ANA at 1 2 4 5 8 12 14 15,62.4 a.u.
2'F-ANA at 4 5 6 7 9 10 11 13,52.4 a.u.
2'F-ANA at 3 7 8 11 15,1070 a.u.
2'F-ANA at 5 10 11 12 13 15,53.5 a.u.
2'F-ANA at 1 2 4 5 7 11 12 14 15,48.8 a.u.
2'F-ANA at 1 5 9 10,58.5 a.u.
2'F-ANA at 1 2 3 6 7 9 12 15,333 a.u.
2'F-ANA at 1 3 4 5 8 11 13 14 15,50 a.u.
2'F-ANA at 7 10 11 12 15,207 a.u.
2'F-ANA at 1 3 4 6 10 12 14 15,76.8 a.u.
2'F-ANA at 1 2 4 5 10 14,52.3 a.u.
2'F-ANA at 3 4 6 10 12 13 15,247 a.u.
2'F-ANA at 1 2 4 6 9 10 11 12 13 14,46.1 a.u.
2'F-ANA at 1 2 3 5 6 8 11 13 14,69.2 a.u.
2'F-ANA at 1 2 5 6 8 11 15,57.7 a.u.
2'F-ANA at 2 4 8 10 11 12 14,81.6 a.u.
2'F-ANA at 1 3 4 5 10 11 13 14 15,51.5 a.u.
2'F-ANA at 5 8 9 11 12 15,135 a.u.
2'F-ANA at 7 8 10 11 12 13,190 a.u.
2'F-ANA at 2 4 5 7 8 9 10 14 15,48.2 a.u.
2'F-ANA at 1 4 5 6 8 9 10 11,50.1 a.u.
2'F-ANA at 2 3 4 7 9 10 11 12 14,175 a.u.
2'F-ANA at 2 7 9 11 12 14 15,182 a.u.
2'F-ANA at 2 3 4 5 6 10 13 15,131 a.u.

# Series 3
# Target: RING finger protein unkempt homolog, zinc fingers 1-6, SBP tag (UNK, Homo sapiens, UniProt Q9C0B0, residues 30-357)
# UniProt Q9C0B0, sequence (30-357, looked up): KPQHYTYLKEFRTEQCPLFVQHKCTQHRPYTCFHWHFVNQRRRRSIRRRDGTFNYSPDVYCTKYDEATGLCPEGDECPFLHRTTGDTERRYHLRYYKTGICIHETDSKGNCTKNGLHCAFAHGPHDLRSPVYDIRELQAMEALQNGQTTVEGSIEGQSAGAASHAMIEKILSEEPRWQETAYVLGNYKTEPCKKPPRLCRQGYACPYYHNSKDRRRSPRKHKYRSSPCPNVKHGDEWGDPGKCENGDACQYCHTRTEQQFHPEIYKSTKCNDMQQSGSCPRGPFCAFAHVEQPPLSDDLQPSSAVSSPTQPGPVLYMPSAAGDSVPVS
# Method: RNA Bind-n-Seq
# Molecule type: RNA
# Medium: in vitro
# Concentration: 100 nM
# Setting: RNA with constant flanks, ends assumed
# Relative to: input RNA pool
# Direction: higher = stronger binding
Sequence,bound/input enrichment
GGGAGUUCUACAGUCCGACGAUCCAGUCAUGGAGAAAAACAUAUUAAAAUAAUUUCAUGGCAUUGAUGUUAAUUCCCGUCUAUCCGUUUUAUAAAAGUCCGGAUUCUUAUUCCGGAACAACAGGAAAUGACUGUUAAGGAGAACAACAGAGGAUUGAGCAUCA,0.319 ratio
GGGAGUUCUACAGUCCGACGAUCUAUCUUCCGGAUGAAGCUCUUACACCAAGUGUCACGAGUCUGGAGAACAGAUGGGUUGAGCCGUUGUUCUUAUAAAUCCGUAUCUGUGGAACACAAUCCUUUAUAUAUCAACAUCACAGUCAACAGAGGAUUGAGCAUCA,0.299 ratio
GGGAGUUCUACAGUCCGACGAUCAUUCAAACCUGUGGUACCAUGGCCUCAUGUUGAAGGAGCCGAAGUGGACUCCGAGUCUAUCCGAAGAAUAAACAAGGCCAAAAAUGAACAAGAGCACCAUGCUGGAGGAGAUUCCCAGAACAACAGAGGAUUGAGCAUCA,0.143 ratio
GGGAGUUCUACAGUCCGACGAUCAAUCAGCCGAAUUACAUAAUACUAAAGUUGCAGUUGAAAGAAUAUCCAAGUAUGUGUUGGCCGUUACUAAAAGAAUUACCGCUGUUAUUGCCUUGUAUUUACCGCCCUUGUUUCAGGUUUCAACAGAGGAUUGAGCAUCA,0.241 ratio

# Series 4
# Target: Protein C-ets-1 (ETS1, Homo sapiens, UniProt P14921, residues 1-441, K379A, full length assumed)
# UniProt P14921, sequence (whole entry, unmodified, looked up): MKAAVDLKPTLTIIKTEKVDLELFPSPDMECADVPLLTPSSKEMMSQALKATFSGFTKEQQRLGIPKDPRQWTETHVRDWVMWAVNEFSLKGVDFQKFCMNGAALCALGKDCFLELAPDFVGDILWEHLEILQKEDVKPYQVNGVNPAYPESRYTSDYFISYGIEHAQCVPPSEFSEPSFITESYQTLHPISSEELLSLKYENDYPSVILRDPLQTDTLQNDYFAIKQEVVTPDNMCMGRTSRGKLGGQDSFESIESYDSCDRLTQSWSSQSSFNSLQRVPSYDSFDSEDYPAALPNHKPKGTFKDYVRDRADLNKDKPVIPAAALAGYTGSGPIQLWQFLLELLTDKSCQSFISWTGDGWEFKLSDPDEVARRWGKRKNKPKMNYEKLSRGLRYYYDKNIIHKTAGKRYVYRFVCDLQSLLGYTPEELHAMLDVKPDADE
# Method: protein-binding microarray
# Molecule type: double-stranded DNA, one strand shown
# Medium: in vitro
# Concentration: not given
# Setting: k-mer, scored over probes, only values ≥0.25
# Direction: higher = stronger binding
Sequence,E-score
AATCCCGT,0.273
CGACGGTA,0.325
ACCGGCAT,0.342
TAATCCAA,0.251
CCGGAGCG,0.277
TAATACAA,0.284
GTCGCGAC,0.311
AAGTCGAC,0.256
CCGGAAGG,0.356
CCGGGTGC,0.25
CGCATTAC,0.258
CCGGAATC,0.283
CGGAAACA,0.327
GAAATGAA,0.293
ATTCTACA,0.26
AGGAAATG,0.263
CCTGTGTA,0.265
ACCGCAAC,0.318
ATTAACCG,0.301

# Repeated from above (series 4):
Sequence,E-score
ACCGGCAT,0.342
CCGGAAGG,0.356
CGACGGTA,0.325
ATTAACCG,0.301
CCTGTGTA,0.265
AAGTCGAC,0.256
CCGGAGCG,0.277
AATCCCGT,0.273
ACCGCAAC,0.318
